Measured values from different studies.
Parts stem from different laboratories: compare values within a part only.

Study 1
Target: RNA binding protein fox-1 homolog 2, RRM domain, GST-SBP tag (RBFOX2, Homo sapiens, UniProt O43251-10, residues 100-194)
Method: RNA Bind-n-Seq
Molecule type: RNA
Medium: in vitro
Tested at: 365 nM
Notes: natural RNA segment, single round, ends assumed
Baseline: no-protein control
Reading: higher = stronger binding
Shared flanks, not repeated: GGGAGUUCUACAGUCCGACGAUC … UGGAAUUCUCGGGUGCCAA
| Oligonucleotide | RBNS enrichment (R) |
| --- | --- |
| UUCUCCGGGAUGCAUAGAUUCAUGAUUUAUCUACUUUUGAAAUGUGGGCUUCUUCAUCUUUACGUUCUAGACUCCAAUUUUGUCCAAUGUAUAUAGAAUCUCCAUAUUAA | 0.418 |
| CCUGGGGUUUGAGAAAGCCUGGUGGAGGAGUGUGGUGGUGUGAGUGGAGACUGGCUGGCAUUCCUCCAGCACUCUGCAGACUUCUUCCUGGGCCCGAGGCUAUGGAGCCU | 1.24 |
| UGCUCUCAGCCAGCACCACUGCCCGCUGAUCUCCGUGAUGAUUAACCUGCUGCUUCCUUACACAAGGCCUGCCCAGGCUGAAGCUCCUGUUUGACCACUCCCCCCCCCCC | 0.627 |
| UGUUUUCUCUCUGUCGCCUUGUUUUGUACCUGGGUCUCGCUUUACUAGACCGUCUCUGCACAAAAGUUUAAAAACUGAACCGUAUGCAGAGUUCCGAAGCAAGUCAAGUU | 0.436 |
| AAAGACUUCUCAGCUCUGACCUGCCUGCCUCCUUGGAAUUAGACUUGAACUUCUGAUCCUGCCUAUCUGUUCUAUGUGAGUGGCAUCUGGGCCCCUAACCUGUCAGUUCA | 1.09 |
| GGACCCUUCCUCACCCCACCUGUCGGUCUUGUCCUGGCUCUGCCUGUCCCCCACCGUUGUUCUCGUAGGUGAACCCCAGGUCCUCAACUCCCCCCCUUUAUGUGUUGAAA | 0.995 |
| GCUUUAGGUCUUCCUGGUUUUUCAUAGUCAACAUUCCACUGAAAUGUACAUAGAAUUGCCAGUGUAUAAAUUAAGAUGUUUUAUUGUUGUUGUCCUUCUUAAUCUCAUUA | 0.677 |
| CAGCUAACCAACUGCAUUACCCAAACCAUAUUGCACUUUUAGUUCCCUAGUUUUCUAGGUGAGCUUCAUUCCCUGAAAGGAGGAUGAUGAUAUCUAGGCAUAACCUAGCC | 0.467 |

Study 2
Target: Ras GTPase-activating protein-binding protein 1, C-terminal RGG region (G3BP1, Homo sapiens, UniProt Q13283)
Chain of UniProt Q13283 (whole entry, looked up): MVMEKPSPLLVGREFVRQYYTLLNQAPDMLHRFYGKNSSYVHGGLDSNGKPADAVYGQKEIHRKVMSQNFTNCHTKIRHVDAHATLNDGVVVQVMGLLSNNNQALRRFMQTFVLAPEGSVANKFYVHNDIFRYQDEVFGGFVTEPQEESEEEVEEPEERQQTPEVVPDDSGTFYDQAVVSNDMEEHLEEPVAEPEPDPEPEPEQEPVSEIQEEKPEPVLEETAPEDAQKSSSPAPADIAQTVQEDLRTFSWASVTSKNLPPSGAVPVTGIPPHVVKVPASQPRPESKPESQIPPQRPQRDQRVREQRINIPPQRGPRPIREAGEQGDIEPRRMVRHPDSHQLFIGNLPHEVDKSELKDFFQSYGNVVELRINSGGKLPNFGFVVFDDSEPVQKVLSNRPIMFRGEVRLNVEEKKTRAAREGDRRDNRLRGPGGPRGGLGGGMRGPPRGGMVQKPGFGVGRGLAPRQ
Method: RNA Bind-n-Seq
Molecule type: RNA
Medium: in vitro
Tested at: 1 µM
Notes: whole 134-nt RNA, ends assumed
With: 150 mM KCl
Baseline: input library
Reading: higher = stronger binding
Shared flanks, not repeated: GGGAGUUCUACAGUCCGACGAUC … UGGAAUUCUCGGGUGUCAAGG
| Oligonucleotide | log2 enrichment |
| --- | --- |
| ACCAUGCAGGUGGGCAUCUUUGGGAAGUGGGGCAAGGGGGGGAUAAAGAGGGGGGUAACACUUUGGGAACAGGUGGUCCCAGGUCGUUUC | -0.826 |
| UGGCCCUGGUGGCAUGCGGGGAGGAAGAGGUGACCUCAUGGAUCGUGGUGGUCCCGGUGGAAUGUUCAGAGGUGGCCGUGGUGGAGACAG | 1.79 |
| GCAGGAAGUAAAAACAAAUGGAAAUGCUUCGGAUAGUGGCAGGGGUGGGGGUCGCUAAGGAAAGGGUGGGAUGGGAGUGGGUAAAGAGUU | 0.802 |
| UCCUGUGCUACACAUCGUAUGUACCGAAUCGGGAAAAAGGGGAAAAAGGGGAAAAAGGGAAAGUAUUAUGUUACGCCGUUCGGAUCUGCA | -0.385 |
| CACAGACAACACGCACCCACACAGACACAGAGGGAAGGGGUUGGGAUGGGGACAAAGUGCACAGCAGGGCGGGGUAGGACCCCAGCCCCU | -0.436 |
| GUCCUGUGCUACACAUCGUAUGUACCGAAUCGGGGAGGGGAAAAAGGGGUUUUUGGGGAAAGUAUUAUGUUACGCCGUUCGGAUCUGCAC | 1.94 |
| GUCCUGUGCUACACAUCGUAUGUACCGAAUCGGAAAAAGGGAAAAAGGGAAAAAGGGGAAAGUAUUAUGUUACGCCGUUCGGAUCUGCAC | -0.914 |
| CCUCAAGUCCUGUGCUACACAUCGUAUGUACCGAAUCGGUUUUUGGAGGUGGAAAGUAUUAUGUUACGCCGUUCGGAUCUGCACUUCCAG | -0.654 |
| UCAGUGUCUUACCCUGAAGAGAAAGUUGUAGGUUGGCUGUUGAAAUUCAUUCCUUAGAUAUGAUCAGUUUGAUUGCCCGGCUUUAUUGCC | -1.89 |

Study 3
Target: Centromere-binding protein 1, full length, His-tagged (CBF1, Saccharomyces cerevisiae, UniProt P17106, residues 1-351)
Chain of UniProt P17106 (whole entry, looked up): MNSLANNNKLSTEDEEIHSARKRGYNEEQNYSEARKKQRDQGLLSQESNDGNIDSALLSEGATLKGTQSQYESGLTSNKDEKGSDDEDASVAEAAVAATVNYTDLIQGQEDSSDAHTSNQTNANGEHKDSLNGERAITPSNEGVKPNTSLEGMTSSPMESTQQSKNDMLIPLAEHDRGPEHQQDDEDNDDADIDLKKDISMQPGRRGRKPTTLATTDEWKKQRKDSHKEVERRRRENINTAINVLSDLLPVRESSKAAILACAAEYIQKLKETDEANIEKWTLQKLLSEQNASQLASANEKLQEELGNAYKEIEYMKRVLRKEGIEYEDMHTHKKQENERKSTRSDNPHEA
Method: competition protein-binding microarray
Molecule type: double-stranded DNA, one strand shown
Medium: in vitro
Tested at: 2 µM
Notes: whole 60-bp probe, lowest competitor level
With: Pho4 competitor, 0.05 µM
Reading: higher = stronger binding
Shared flanks, not repeated: … GTCTTGATTCGCTTGACGCTGCTG
| Oligonucleotide | fluorescence intensity |
| --- | --- |
| AGAGGAGATCCCTGGCACGCTCACTGCGCCTTTCAA | 61.6 a.u. |
| AAATTACTAAGTTGCAATGTGGGTGACGCCGTATGA | 73.9 a.u. |
| CATTCGAAGCAGTGCCAAGTTCTATTGTATCATTCC | 69.7 a.u. |
| AGTTCTCTATTCCGCACCGTGCCGAGTTGTGGCAAA | 73.5 a.u. |
| ACACCAAATCCGAGTCACGTTCCTTCTTGATTAGTG | 880 a.u. |
| CTTTCCCGATCTTGTCACAGGACTTTAGCACATTTG | 111 a.u. |
| CTAACGAAGGTTTGAGTAGTGGGTGACAAGCCAAGT | 62.6 a.u. |
| CCAAACCGAGTTTGTCACGGCATATATACTCTGGCG | 70.3 a.u. |
| ATAAAACAACGGCCTCCCGTGCCGAATTACCTTCCT | 106 a.u. |
| AAATTACTAAGTTGCATCGTGGGTGACGCCGTATGA | 65.5 a.u. |
| TTGATTCAAGCTCCACACGTGAGTCGAATGAACCTG | 1020 a.u. |
| CAAACTCGAATCCATCACGTTTCACAATTGTTCCAA | 426 a.u. |
| CTTGTATATATAAATGTCGTGATGGTTCTATGCCAA | 125 a.u. |
| CGGGGTTAAGTTTGTCACACTACTTGCTTGCAGCAG | 78.8 a.u. |
| CAGAAGGAGAGACTGAACGTGTACTTCAACGAGGCA | 63.6 a.u. |
| ATACATTTCTCAGGACACGTACTGAGAATATTGTTG | 111 a.u. |
| TGGGTAAGATTTCACCACGTGAGGAGCATAATATTG | 1630 a.u. |
| CTGACGGCAACGCGACGCGTGACGGGTAAGATAAGA | 220 a.u. |
| CTAACGAAGGTTTGTCACCTCACTTACAAGCCAAGT | 78.7 a.u. |

Study 4
Target: Myc proto-oncogene protein, bHLH-zipper, MAX partner unstated (MYC, Homo sapiens, UniProt P01106, residues 368-449)
Chain of UniProt P01106 (368-449, looked up): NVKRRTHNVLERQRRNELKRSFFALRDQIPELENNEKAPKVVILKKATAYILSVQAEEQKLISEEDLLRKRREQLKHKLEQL
Method: protein-binding microarray
Molecule type: double-stranded DNA, one strand shown
Medium: in vitro
Tested at: not given
Notes: k-mer, scored over probes, only values ≥0.25
Reading: higher = stronger binding
| Oligonucleotide | E-score |
| --- | --- |
| TCACGCGA | 0.38 |
| ACGCGAGA | 0.269 |
| AGACGCAT | 0.274 |
| GACCCCAC | 0.301 |
| CGTGTTGC | 0.36 |
| GTGTGCGA | 0.303 |
| GCGTGTCA | 0.406 |
| AGTCGTGC | 0.28 |
| ACGGGGGC | 0.257 |
| CATGCGCA | 0.417 |
| ACATGTCT | 0.282 |
| ACGATGCC | 0.262 |
| CGTGTCAC | 0.403 |
| TCATGTCA | 0.253 |
| AACGCACA | 0.289 |
| ACGGGCCA | 0.252 |
| CCATGCAC | 0.379 |
| CACCATGA | 0.314 |
| ACGTGAAA | 0.251 |
| ACACGTGA | 0.48 |
| CATGACAA | 0.271 |
